Results of several laboratories.
Numbered parts are unrelated; each lists some results of a single study. Values joined by “and” are separate records of one study, mostly repeats; a detail may differ.
Chain of UniProt P42336 (whole entry, unmodified, looked up): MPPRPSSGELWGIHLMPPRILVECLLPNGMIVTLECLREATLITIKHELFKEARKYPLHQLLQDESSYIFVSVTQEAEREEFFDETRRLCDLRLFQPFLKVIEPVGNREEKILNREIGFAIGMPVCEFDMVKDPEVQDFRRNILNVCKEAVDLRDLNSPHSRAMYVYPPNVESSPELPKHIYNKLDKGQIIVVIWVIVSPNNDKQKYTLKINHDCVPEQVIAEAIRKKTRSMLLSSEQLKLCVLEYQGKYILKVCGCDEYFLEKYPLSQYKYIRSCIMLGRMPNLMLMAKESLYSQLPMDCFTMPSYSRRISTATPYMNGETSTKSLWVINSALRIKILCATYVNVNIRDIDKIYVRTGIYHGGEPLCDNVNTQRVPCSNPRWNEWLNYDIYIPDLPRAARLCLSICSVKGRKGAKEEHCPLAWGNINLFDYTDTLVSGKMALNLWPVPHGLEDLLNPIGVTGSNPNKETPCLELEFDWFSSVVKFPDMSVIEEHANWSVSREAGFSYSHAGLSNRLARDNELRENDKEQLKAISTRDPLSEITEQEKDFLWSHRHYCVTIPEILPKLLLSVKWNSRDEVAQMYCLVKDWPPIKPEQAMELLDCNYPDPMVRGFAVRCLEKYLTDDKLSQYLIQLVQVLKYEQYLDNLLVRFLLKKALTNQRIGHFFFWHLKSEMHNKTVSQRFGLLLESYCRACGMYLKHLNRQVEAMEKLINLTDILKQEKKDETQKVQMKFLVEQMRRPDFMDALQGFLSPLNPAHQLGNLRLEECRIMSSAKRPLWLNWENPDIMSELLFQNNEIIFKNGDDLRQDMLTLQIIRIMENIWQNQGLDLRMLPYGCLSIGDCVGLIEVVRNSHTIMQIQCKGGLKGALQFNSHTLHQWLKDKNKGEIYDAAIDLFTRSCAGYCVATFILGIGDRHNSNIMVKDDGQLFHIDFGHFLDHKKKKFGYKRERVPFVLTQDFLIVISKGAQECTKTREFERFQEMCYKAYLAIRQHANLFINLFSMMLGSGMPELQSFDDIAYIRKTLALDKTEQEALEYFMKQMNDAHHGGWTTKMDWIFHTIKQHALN
Chain of UniProt Q9HCP0 (whole entry, looked up): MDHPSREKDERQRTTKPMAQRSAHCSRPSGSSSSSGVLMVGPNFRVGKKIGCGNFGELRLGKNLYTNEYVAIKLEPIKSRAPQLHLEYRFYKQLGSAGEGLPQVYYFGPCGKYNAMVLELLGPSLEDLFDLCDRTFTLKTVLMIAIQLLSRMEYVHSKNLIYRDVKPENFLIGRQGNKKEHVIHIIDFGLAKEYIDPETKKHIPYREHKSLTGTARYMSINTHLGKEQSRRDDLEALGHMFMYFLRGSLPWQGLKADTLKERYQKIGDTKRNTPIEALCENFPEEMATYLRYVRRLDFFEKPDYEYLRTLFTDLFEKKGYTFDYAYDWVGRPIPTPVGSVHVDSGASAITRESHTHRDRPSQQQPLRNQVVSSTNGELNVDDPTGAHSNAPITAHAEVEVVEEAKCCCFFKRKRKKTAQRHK
Chain of UniProt Q92918 (whole entry, looked up): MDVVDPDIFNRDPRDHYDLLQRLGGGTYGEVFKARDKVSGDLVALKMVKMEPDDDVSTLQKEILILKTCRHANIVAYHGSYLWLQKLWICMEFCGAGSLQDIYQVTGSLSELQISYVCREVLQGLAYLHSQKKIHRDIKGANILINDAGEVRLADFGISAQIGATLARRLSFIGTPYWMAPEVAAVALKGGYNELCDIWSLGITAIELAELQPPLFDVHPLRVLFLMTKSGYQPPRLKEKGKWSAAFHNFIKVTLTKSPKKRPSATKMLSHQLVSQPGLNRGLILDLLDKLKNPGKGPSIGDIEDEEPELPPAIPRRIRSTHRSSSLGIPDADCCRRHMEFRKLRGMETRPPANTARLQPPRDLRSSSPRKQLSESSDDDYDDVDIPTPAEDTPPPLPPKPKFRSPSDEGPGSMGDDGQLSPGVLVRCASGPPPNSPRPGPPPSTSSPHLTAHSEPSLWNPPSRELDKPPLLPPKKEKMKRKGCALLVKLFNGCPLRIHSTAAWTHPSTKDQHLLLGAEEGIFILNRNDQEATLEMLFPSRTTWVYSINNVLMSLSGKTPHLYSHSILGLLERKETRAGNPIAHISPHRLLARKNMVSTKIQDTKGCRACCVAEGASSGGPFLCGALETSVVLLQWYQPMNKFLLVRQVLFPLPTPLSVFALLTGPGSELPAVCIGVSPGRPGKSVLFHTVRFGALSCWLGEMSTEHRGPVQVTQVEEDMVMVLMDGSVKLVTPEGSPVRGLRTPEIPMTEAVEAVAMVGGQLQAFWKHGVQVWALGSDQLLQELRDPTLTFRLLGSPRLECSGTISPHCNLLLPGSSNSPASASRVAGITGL
Chain of UniProt P11802 (whole entry, looked up): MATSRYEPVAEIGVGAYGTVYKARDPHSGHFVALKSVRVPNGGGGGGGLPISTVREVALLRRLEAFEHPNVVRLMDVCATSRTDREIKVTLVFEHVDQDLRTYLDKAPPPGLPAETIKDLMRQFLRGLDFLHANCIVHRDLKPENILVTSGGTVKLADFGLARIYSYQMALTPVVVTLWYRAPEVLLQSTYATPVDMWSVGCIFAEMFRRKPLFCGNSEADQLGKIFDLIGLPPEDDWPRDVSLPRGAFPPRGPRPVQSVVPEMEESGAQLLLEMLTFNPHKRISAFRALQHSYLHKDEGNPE
Chain of UniProt P42679 (whole entry, looked up): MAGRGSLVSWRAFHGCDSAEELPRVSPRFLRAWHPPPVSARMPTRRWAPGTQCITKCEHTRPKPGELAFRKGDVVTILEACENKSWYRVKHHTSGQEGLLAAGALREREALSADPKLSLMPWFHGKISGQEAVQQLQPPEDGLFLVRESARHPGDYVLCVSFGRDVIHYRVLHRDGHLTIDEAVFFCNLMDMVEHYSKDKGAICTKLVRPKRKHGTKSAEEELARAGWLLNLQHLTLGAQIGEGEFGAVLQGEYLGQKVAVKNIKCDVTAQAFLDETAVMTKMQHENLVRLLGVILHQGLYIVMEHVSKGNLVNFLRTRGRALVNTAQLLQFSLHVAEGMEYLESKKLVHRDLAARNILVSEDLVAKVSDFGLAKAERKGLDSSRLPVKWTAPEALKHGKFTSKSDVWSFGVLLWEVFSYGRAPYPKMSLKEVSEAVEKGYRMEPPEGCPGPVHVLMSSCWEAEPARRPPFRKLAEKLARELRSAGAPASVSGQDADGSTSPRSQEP
Chain of UniProt Q99755 (whole entry, looked up): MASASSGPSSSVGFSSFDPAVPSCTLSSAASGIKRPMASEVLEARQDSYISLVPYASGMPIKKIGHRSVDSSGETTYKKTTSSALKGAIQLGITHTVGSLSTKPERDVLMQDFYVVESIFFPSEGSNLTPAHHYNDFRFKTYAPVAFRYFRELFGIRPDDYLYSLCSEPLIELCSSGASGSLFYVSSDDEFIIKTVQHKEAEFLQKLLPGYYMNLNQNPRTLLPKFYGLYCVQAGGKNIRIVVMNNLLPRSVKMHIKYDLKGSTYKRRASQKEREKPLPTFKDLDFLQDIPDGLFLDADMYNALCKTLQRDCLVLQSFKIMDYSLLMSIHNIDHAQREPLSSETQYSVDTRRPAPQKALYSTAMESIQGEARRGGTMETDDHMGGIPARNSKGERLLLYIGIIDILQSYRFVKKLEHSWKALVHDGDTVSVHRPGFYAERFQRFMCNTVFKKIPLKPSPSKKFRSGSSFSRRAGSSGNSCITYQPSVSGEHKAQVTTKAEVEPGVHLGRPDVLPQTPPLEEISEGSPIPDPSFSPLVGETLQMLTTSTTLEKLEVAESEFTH

Block 1
Compound: CN(C)C(=O)Cn1cc(-c2nc(C3(c4ccc(-c5cnc(N)nc5)cc4)CC3)no2)cn1
Effect on: cell-free assay
Method: competition with immobilised ligand
Concentration: 1 µM
target | remaining binding [%]
PIK3CA (Homo sapiens, UniProt P42336, E545K) | 85
PIP5K1A (Homo sapiens, UniProt Q99755) | 95
CDK4 (Homo sapiens, UniProt P11802) | 67
PIK3CA (Homo sapiens, UniProt P42336, E545A) | 99
EGFR (Homo sapiens, UniProt P00533, G719C) | 100
LRRK2 (Homo sapiens, UniProt Q5S007, G2019S) | 100
DAPK1 (Homo sapiens, UniProt P53355) | 100
PIK3CA (Homo sapiens, UniProt P42336, H1047L) | 73
MAP3K7 (Homo sapiens, UniProt O43318) | 72
Tyrosine-protein kinase ABL1, non-phosphorylated (ABL1, Homo sapiens, UniProt P00519, T315I) | 82
MAP4K1 (Homo sapiens, UniProt Q92918) | 81
FLT3 (Homo sapiens, UniProt P36888, N841I) | 100
FES (Homo sapiens, UniProt P07332) | 100
LIM domain kinase 1 (LIMK1, Homo sapiens, UniProt P53667) | 100
CSNK1G1 (Homo sapiens, UniProt Q9HCP0) | 90
EPHB6 (Homo sapiens, UniProt O15197) | 93
FLT3 (Homo sapiens, UniProt P36888, R834Q) | 90
LATS1 (Homo sapiens, UniProt O95835) | 100
MATK (Homo sapiens, UniProt P42679) | 77
PRKACB (Homo sapiens, UniProt P22694) | 86

Block 2
Target: Mitogen-activated protein kinase kinase kinase kinase 2 (MAP4K2, Homo sapiens, UniProt Q12851)
Chain of UniProt Q12851 (whole entry, looked up): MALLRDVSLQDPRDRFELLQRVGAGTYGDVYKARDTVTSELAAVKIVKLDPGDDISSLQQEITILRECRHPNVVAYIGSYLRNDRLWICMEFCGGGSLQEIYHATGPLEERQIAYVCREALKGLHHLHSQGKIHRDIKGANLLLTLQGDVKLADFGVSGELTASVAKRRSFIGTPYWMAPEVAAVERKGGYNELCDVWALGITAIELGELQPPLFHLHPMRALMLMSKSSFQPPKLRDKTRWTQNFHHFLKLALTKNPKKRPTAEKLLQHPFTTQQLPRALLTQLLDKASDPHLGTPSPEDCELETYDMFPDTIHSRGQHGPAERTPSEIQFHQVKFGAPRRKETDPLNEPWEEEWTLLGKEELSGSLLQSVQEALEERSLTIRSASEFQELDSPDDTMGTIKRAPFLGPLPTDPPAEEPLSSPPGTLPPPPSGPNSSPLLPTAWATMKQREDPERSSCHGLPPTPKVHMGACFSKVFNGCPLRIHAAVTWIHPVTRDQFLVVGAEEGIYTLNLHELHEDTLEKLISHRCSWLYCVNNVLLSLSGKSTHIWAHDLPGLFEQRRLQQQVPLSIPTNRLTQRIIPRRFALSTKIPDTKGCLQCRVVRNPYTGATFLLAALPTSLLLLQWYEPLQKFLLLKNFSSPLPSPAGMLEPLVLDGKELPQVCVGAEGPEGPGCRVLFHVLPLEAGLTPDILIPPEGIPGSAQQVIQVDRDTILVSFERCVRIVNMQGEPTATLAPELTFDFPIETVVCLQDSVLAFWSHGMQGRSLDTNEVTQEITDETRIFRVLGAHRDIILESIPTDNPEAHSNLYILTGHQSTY
Effect on: enzyme activity
Mode: inhibitor
Concentration: 0.5 µM
Baseline: control
SMILES | remaining activity
O=C(Nc1cccc(Nc2nccc(Nc3cccc(C(F)(F)F)c3)n2)c1)C1CC1 | 112%
CCN(CC)C(=O)c1ccc(Nc2nc(OCC3CCCCC3)c3[nH]cnc3n2)cc1 | 59.7%
Cn1nc2c3c(cccc31)C(=O)c1ccccc1-2 | 75.4%
CCN(CC)CCNC(=O)c1c(C)[nH]c(/C=C2\C(=O)Nc3ccc(Cl)cc32)c1C | 8.07%
Cc1cn(-c2cc(NC(=O)c3ccc(C)c(Nc4nccc(-c5cccnc5)n4)c3)cc(C(F)(F)F)c2)cn1 | 103%
N#C/C(=C\c1ccc(O)c(O)c1)C(=O)NCc1ccccc1 | 103%
CCN(CC)CCNC(=O)c1c(C)[nH]c(/C=C2\C(=O)Nc3ccc(F)cc32)c1C | 34.4%
CN([C@@H](Cc1ccc(OS(=O)(=O)c2cccc3cnccc23)cc1)C(=O)N1CCN(c2ccccc2)CC1)S(=O)(=O)c1cccc2cnccc12 | 89.5%
O=c1cc(-c2cccc3c2Sc2ccccc2S3)oc(N2CCOCC2)c1 | 109%
O=C1C(Cl)=C(N2C(=O)CCC2=O)C(=O)c2ccccc21 | 89.6%
Cc1cc2ncc(-c3ccccc3)nc2cc1C | 113%
N#Cc1c(NC(=O)c2cccc3ccccc23)sc2c1CCCC2 | 86.1%
O=C(NC(NC(=S)Nc1ccc(F)c([N+](=O)[O-])c1)C(Cl)(Cl)Cl)C(c1ccccc1)c1ccccc1 (centres unmarked) | 111%
c1ccc(-c2[nH]ncc2-c2ccnc3ccccc23)nc1 | 103%
COc1cc2ncnc(Nc3ccc(O)c(Br)c3)c2cc1OC | 101%
COc1cc2c(cc1OC)-c1[nH]nc(Nc3cccc(F)c3)c1C2 | 103%
CN(C)C[C@H]1CCn2c(c(C3=C(c4cn(C)c5ccccc45)C(=O)NC3=O)c3ccccc32)C1 | 99%
c1ccc(-c2cnc(Nc3ccc(OCCN4CCCC4)cc3)s2)cc1 | 113%
O=C1c2ccccc2-c2n[nH]c3cccc1c23 | 42.8%
CCOc1nc(NC(=O)Cc2cc(OC)ccc2OC)cc(N)c1C#N | 83.6%
Nc1cccc(-c2cc3c(Oc4cccc(O)c4)ncnc3[nH]2)c1 | 55.5%
COc1cc2ncnc(Nc3cccc(Cl)c3)c2cc1OC | 98.1%
C[C@@H]1CCN(C(=O)CC#N)C[C@@H]1N(C)c1ncnc2[nH]ccc12 | 102%
Ic1cccc(CSc2nnc(-c3ccncc3)o2)c1 | 112%

Block 3
Target: Calcium/calmodulin-dependent protein kinase type II subunit alpha (CAMK2A, Homo sapiens, UniProt Q9UQM7)
Chain of UniProt Q9UQM7 (whole entry, looked up): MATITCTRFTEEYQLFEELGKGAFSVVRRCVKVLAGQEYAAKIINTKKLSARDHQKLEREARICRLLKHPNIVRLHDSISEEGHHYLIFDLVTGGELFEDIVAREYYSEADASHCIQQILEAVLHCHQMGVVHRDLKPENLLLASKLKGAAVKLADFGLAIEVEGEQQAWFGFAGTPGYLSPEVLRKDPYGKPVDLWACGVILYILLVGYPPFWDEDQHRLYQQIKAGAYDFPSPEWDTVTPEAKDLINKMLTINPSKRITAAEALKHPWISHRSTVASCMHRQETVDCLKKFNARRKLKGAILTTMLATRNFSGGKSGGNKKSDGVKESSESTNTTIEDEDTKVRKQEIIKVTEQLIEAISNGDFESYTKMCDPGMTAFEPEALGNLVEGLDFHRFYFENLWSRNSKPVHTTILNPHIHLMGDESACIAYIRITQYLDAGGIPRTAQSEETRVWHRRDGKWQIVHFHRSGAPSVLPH
Effect on: enzyme activity
Mode: inhibitor
Concentration: 10 µM
SMILES | inhibition [%]
Oc1ccc2ccccc2c1 | 24
COc1cc2c3c(cc4ccccc4c3c1OC)N(C)CC2 | 25
CCOC(=O)c1ccc(O)cc1 | 5
CC(C)CC1NC(=O)C(Cc2ccc(O)cc2)NC1=O (centres unmarked) | -118
Cc1cc(=O)oc2c(O)c(O)ccc12 | 22
CCCCCCCCCCCCCCOC(C)=O | -23
COc1ccc(-c2coc3cc(O[C@@H]4O[C@H](CO)[C@@H](O)[C@H](O)[C@H]4O)ccc3c2=O)cc1O | -7
O=C(c1ccc(OCCN2CCCCC2)cc1)c1c(-c2ccc(O)cc2)sc2cc(O)ccc12 | 21

Block 4
Cell line: mouse MPNST tumor cells
Method: high-content immunofluorescence imaging
Item: nuclear SOX9
Concentration: 10 µM
Time: 12 h
Setting: mean of 2 replicates
Baseline: DMSO control
Direction: higher = more nuclear SOX9
SMILES | nuclear SOX9 intensity
Oc1ccc(OCc2ccccc2)cc1 | 125 % of DMSO
C1=Cc2ccccc2C(=C2CCN(CCCCc3nn[nH]n3)CC2)c2ccccc21 | 98.7 % of DMSO
CCCc1nn(C)c2c(=O)[nH]c(-c3cc(S(=O)(=O)N4CCN(C)CC4)ccc3OCC)nc12 | 108 % of DMSO and 94.3 % of DMSO and 94.9 % of DMSO
Cc1cc(C=C2SC(=O)N(c3ccccc3)C2=O)c(C)n1-c1cccnc1 | 108 % of DMSO
COc1ccc2cc([C@H](C)C(=O)O)ccc2c1 | 103 % of DMSO
CC(=O)[C@H]1CC[C@H]2[C@@H]3CC=C4C[C@@H](O)CC[C@]4(C)[C@H]3CC[C@]12C | 94.2 % of DMSO
O=C(O)[C@@H]1[C@H](C(=O)O)NCCN1C(=O)c1ccc2c(ccc3ccccc32)c1.O=C(O)[C@H]1NCCN(C(=O)c2ccc3c(ccc4ccccc43)c2)[C@H]1C(=O)O | 94.8 % of DMSO
CCC(C)N(C)C(=O)c1cc2ccccc2c(-c2ccccc2Cl)n1 (centres unmarked) | 92.3 % of DMSO
C[C@H](Nc1cc2c(-c3ccc4c(c3)OCO4)noc2cn1)c1ccccc1 | 124 % of DMSO
Cc1cccc(Nc2cc(Cl)nc(SCC(=O)O)n2)c1C | 83.4 % of DMSO
COc1cc2ncnc(Nc3ccc(O)c(Br)c3)c2cc1OC | 86.5 % of DMSO
COC(=O)C1=C(C)NC(C)=C(C(=O)OCCSc2ccccc2)C1C (centres unmarked) | 124 % of DMSO
Cc1c(NC(C)C)c(=O)n(-c2ccccc2)n1C | 71.4 % of DMSO

A few entries again (block 2):
SMILES | remaining activity
N#Cc1c(NC(=O)c2cccc3ccccc23)sc2c1CCCC2 | 86.1%
O=C(NC(NC(=S)Nc1ccc(F)c([N+](=O)[O-])c1)C(Cl)(Cl)Cl)C(c1ccccc1)c1ccccc1 (centres unmarked) | 111%
c1ccc(-c2[nH]ncc2-c2ccnc3ccccc23)nc1 | 103%
COc1cc2ncnc(Nc3ccc(O)c(Br)c3)c2cc1OC | 101%
COc1cc2c(cc1OC)-c1[nH]nc(Nc3cccc(F)c3)c1C2 | 103%
CN(C)C[C@H]1CCn2c(c(C3=C(c4cn(C)c5ccccc45)C(=O)NC3=O)c3ccccc32)C1 | 99%
c1ccc(-c2cnc(Nc3ccc(OCCN4CCCC4)cc3)s2)cc1 | 113%
O=C1c2ccccc2-c2n[nH]c3cccc1c23 | 42.8%
